Values quoted from earlier work that unrelated publications cite.
Each line is one published result; not all experiments were run side by side. ± gives the spread as reported.
UniProt Q7KZI7, sequence (whole entry, looked up): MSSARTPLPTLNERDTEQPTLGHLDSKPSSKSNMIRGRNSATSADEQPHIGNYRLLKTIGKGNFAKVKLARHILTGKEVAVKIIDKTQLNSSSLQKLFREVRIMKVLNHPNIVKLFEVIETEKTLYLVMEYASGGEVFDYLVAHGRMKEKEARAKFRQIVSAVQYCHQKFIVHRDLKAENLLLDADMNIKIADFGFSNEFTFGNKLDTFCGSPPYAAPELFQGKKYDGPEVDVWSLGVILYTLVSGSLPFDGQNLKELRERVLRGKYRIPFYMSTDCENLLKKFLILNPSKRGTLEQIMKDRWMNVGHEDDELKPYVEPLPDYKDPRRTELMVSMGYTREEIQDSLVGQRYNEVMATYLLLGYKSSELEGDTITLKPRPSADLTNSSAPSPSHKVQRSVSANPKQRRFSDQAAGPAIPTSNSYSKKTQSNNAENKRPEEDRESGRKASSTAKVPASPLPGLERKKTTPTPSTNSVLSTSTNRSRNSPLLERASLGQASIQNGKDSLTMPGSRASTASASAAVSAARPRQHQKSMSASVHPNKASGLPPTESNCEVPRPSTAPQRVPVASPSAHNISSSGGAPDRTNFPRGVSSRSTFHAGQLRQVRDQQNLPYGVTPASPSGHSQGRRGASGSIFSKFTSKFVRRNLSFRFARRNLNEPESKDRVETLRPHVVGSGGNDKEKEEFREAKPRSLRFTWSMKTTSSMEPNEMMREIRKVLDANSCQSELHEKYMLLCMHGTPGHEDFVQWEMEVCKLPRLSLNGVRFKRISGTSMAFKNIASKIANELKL

CC(C)(C)NCC(O)c1cc(O)cc(O)c1 (stereo not drawn) — Cmax (human, plasma; inhaled, dose not given): 12 nM
OC(Cn1cncn1)(Cn1cncn1)c1ccc(F)cc1F — Cmax (human; oral, 50 mg single dose): 1130 ng/mL
CNC(=O)c1c(C)oc2cc(Oc3ncnc4cc(OC)c(OC)cc34)ccc12 — Cmax (healthy human subjects, plasma; 5 mg, single dose): 133 ng/mL
C=CC(=O)N1CCC([C@@H]2CCNc3c(C(N)=O)c(-c4ccc(Oc5ccccc5)cc4)nn32)CC1 — Cmax (human patients; oral, 320 mg once daily, day 8): 608 ± 244 ng/mL
O=C(NCC1CCCCN1)c1cc(OCC(F)(F)F)ccc1OCC(F)(F)F (stereo not drawn) — Cmax (human, plasma; concentration not given): 930 nM
O=C(O)[C@H]1O[C@@H](Oc2ccc([C@@H]3[C@@H](CC[C@H](O)c4ccc(F)cc4)C(=O)N3c3ccc(F)cc3)cc2)[C@H](O)[C@@H](O)[C@@H]1O — Cmax (human; dose not given): 282 ng/mL
CNCc1cc(-c2ccccc2F)n(S(=O)(=O)c2cccnc2)c1 — Cmax (human, plasma; 20 mg single dose, observed clinical data): 23 ng/mL
O=C(O)C[C@H]1CC[C@H](c2ccc(-c3ccc(Nc4ccc(C(F)(F)F)nc4)cn3)cc2)CC1 — Cmax (human; dose not given): 2800 nM
COc1cc2nccc(Oc3ccc(NC(=O)C4(C(=O)Nc5ccc(F)cc5)CC4)cc3)c2cc1OC — Cmax (human, plasma; dose not given): 1080 nM
CNC(=O)c1ccccc1Sc1ccc2c(/C=C/c3ccccn3)n[nH]c2c1 — Cmax (human, plasma; concentration not given): 56 nM
C[C@@H](Oc1ccc(S(C)(=O)=O)cc1C(=O)N1C[C@@H]2C[C@]2(c2cc(C(F)(F)F)on2)C1)C(F)(F)F — Cmax (human; oral, 150 mg, solution, fasted, single dose): 2970 nM
CO[C@@H](C)Cn1c(=O)n(C)c2cnc3ccc(-c4cncc(C(C)(C)O)c4)cc3c21 — Cmax (human; 200 mg twice daily, monotherapy, steady state, day 15): 752 ng/mL
Nc1cc(C(F)(F)F)c(-c2nc(N3CCOCC3)nc(N3CCOCC3)n2)cn1 — remaining activity (Serine/threonine-protein kinase MARK2 (MARK2, Homo sapiens, UniProt Q7KZI7); enzyme activity; 10 µM; baseline: untreated): 87%
O=C(c1cc(Cc2n[nH]c(=O)c3ccccc23)ccc1F)N1CCN(C(=O)C2CC2)CC1 — Cmax (human; oral, 100 mg tablet, single dose, added: itraconazole 0 mg): 3000 ng/mL
FC(F)(F)c1ccc(CNc2ccc(Cc3c[nH]c4ncc(Cl)cc34)cn2)cn1 — Cmax (human; 1000 mg/day, day 1, split 500 mg BID dosing): 1900 ng/mL
COc1cc2c(Oc3ccc4[nH]c(C)cc4c3F)ccnc2cc1OCC1(N)CC1 — Cmax (human; 12 mg single dose): 10.5 ± 2.9 ng/mL
C[C@]12C=CC(=O)C=C1CC[C@H]1[C@@H]3C[C@@H](O)[C@](O)(C(=O)CO)[C@@]3(C)C[C@H](O)[C@@]12F — Cmax (human, plasma; concentration not given): 27 nM
Cn1cnc2c(F)c(Nc3ccc(Br)cc3F)c(C(=O)NOCCO)cc21 — Cmax (human, plasma total; 30 mg): 662 nM
CCc1ccc(CCOc2ccc(CC3SC(=O)NC3=O)cc2)nc1 (stereo not drawn) — Cmax (human, plasma; oral, 45 mg single dose): 3000 to 6000 nM
O=C(c1cc(Cc2n[nH]c(=O)c3ccccc23)ccc1F)N1CCN(C(=O)C2CC2)CC1 — Cmax (human; oral tablet, 100 mg twice daily, multiple dose): 3750 ng/mL
Cc1cc(C)c(CNC(=O)c2cc(Cl)c3c(c2C)O[C@@](C)([C@H]2CC[C@H](N(C)C)CC2)O3)c(=O)[nH]1 — Cmax (human, plasma; oral, 100 mg single dose, study, geometric mean): 570 ng/mL
CCc1nn(CCO)c(CC)c1Oc1cc(C#N)cc(C#N)c1 — Cmax (human, plasma total; 600 mg): 4440 nM
O=C(c1cccnc1-c1ccncc1)N1CCC(O)(Cc2ccccc2)CC1 — Cmax (human adults, mild hepatic impairment, plasma; 300 mg single dose): 1440 ng/mL
COc1cc(Cc2cnc(N)nc2N)cc(OC)c1OC — Cmax (human; dose not given): 30000 nM
COc1cccc2c1C(=O)c1c(O)c3c(c(O)c1C2=O)C[C@@](O)(C(=O)CO)C[C@@H]3O[C@H]1C[C@H](N)[C@H](O)[C@H](C)O1 — Cmax (human normal weight, plasma; intravenous infusion, 60 mg/m2, 40 min infusion): 1160 nM
Nc1nc(-n2cc(C(=O)O)c(=O)c3cc(F)c(N4CC(O)C4)c(Cl)c32)c(F)cc1F — Cmax (human, plasma total; 450 mg): 16900 nM
CC(C)(C)c1ccc(S(=O)(=O)Nc2ccc(Cl)cc2C(=O)c2cc[n+]([O-])cc2)cc1 — Cmax (human; dose not given): 2200 nM
COc1ccccc1OCC(O)CN1CCN(CC(=O)Nc2c(C)cccc2C)CC1 (stereo not drawn) — Cmax (human, plasma; concentration not given, total plasma concentration): 14000 nM
CCC(C)n1ncn(-c2ccc(N3CCN(c4ccc(OCC5COC(Cn6cncn6)(c6ccc(Cl)cc6Cl)O5)cc4)CC3)cc2)c1=O (stereo not drawn) — Cmax (human; oral, 200 mg single dose): 119 ng/mL
NC(=O)N1c2ccccc2CC(=O)c2ccccc21 — Cmax (human, plasma total; 450 mg): 7910 nM
CCN1CCN(Cc2ccc(Nc3ncc(F)c(-c4cc(F)c5nc(C)n(C(C)C)c5c4)n3)nc2)CC1 — Cmax (human; oral tablet, 100 mg twice daily, multiple dose): 205 ng/mL
C[C@@H]1C[C@H]2[C@@H]3CCC4=CC(=O)C=C[C@]4(C)[C@@]3(F)[C@@H](O)C[C@]2(C)[C@@]1(O)C(=O)CO — Cmax (human, plasma; concentration not given): 160 nM
COCCc1ccc(OCC(O)CNC(C)C)cc1 (stereo not drawn) — Cmax (human fasted; 300 mg multiple doses, day 7, mean): 178 ng/mL
COC(=O)N[C@H](C(=O)N1CCC[C@H]1c1nc(-c2ccc(-c3ccc(-c4c[nH]c([C@@H]5CCCN5C(=O)[C@@H](NC(=O)OC)C(C)C)n4)cc3)cc2)c[nH]1)C(C)C — Cmax (human; dose not given): 1350 nM
C[C@H]1O[C@@H](O[C@H]2[C@@H](O)C[C@H](O[C@H]3[C@@H](O)C[C@H](O[C@H]4CC[C@@]5(C)[C@H](CC[C@@H]6[C@@H]5C[C@@H](O)[C@]5(C)[C@@H](C7=CC(=O)OC7)CC[C@]65O)C4)O[C@@H]3C)O[C@@H]2C)C[C@H](O)[C@@H]1O — Cmax (human; oral, dose not given): 1.67 ng/mL
CCc1cc2c(cc1CC)CC(NC[C@H](O)c1ccc(O)c3[nH]c(=O)ccc13)C2 — Cmax (human, plasma; inhaled, dose not given): 0.51 nM
CN(CCOc1ccc(CC2SC(=O)NC2=O)cc1)c1ccccn1 (stereo not drawn) — Cmax (human, plasma; oral, 8 mg single dose): 1000 to 2000 nM
C[C@@H](Oc1cc(-c2cnn(C3CCNCC3)c2)cnc1N)c1c(Cl)ccc(F)c1Cl — Cmax (human, plasma; concentration not given): 220 nM
COc1ccc2[nH]c([S+]([O-])Cc3ncc(C)c(OC)c3C)nc2c1 (stereo not drawn) — Cmax (human post-RYGB patients; oral tablet, 20 mg twice daily, day 7): 959 ng/mL
CO[C@H]1O[C@H](COS(=O)(=O)O)[C@@H](O[C@@H]2O[C@@H](C(=O)O)[C@@H](O[C@H]3O[C@H](COS(=O)(=O)O)[C@@H](O[C@@H]4O[C@H](C(=O)O)[C@@H](O[C@H]5O[C@H](COS(=O)(=O)O)[C@@H](O)[C@H](O)[C@H]5NS(=O)(=O)O)[C@H](O)[C@H]4O)[C@H](OS(=O)(=O)O)[C@H]3NS(=O)(=O)O)[C@H](O)[C@H]2OS(=O)(=O)O)[C@H](O)[C@H]1NS(=O)(=O)O — Cmax (human, plasma; concentration not given): 840 nM
C[C@H]1CO[C@@H]2Cn3cc(C(=O)NCc4ccc(F)cc4F)c(=O)c(O)c3C(=O)N12 — Cmax (human; oral solution, 10 mg, geometric mean): 1930 ng/mL
Cc1nsc(-c2nnc3n2CCN(C(=O)c2ccc(F)cc2)[C@@H]3C)n1 — Cmax (human; oral, 30 mg single dose, non-smoker): 282 ng/mL
O=C(c1cc(Cc2n[nH]c(=O)c3ccccc23)ccc1F)N1CCN(C(=O)C2CC2)CC1 — Cmax (human; 300 mg tablet; baseline: 400 mg capsule): increased
CC(=O)[C@]1(O)Cc2c(O)c3c(c(O)c2[C@@H](O[C@H]2C[C@H](N)[C@H](O)[C@H](C)O2)C1)C(=O)c1ccccc1C3=O — Cmax (human, plasma; concentration not given): 88 nM
CCCc1nn(C)c2c(=O)[nH]c(-c3cc(S(=O)(=O)N4CCN(C)CC4)ccc3OCC)nc12 — Cmax (humans; oral, 100 mg, geometric mean, given alone): 321 ng/mL
